Measured values collected from several papers.
Each numbered part is a random draw from the data of one study; scales do not carry over between parts.

Sample 1
Target: RNA binding protein fox-1 homolog 2, RRM domain, GST-SBP tag (RBFOX2, Homo sapiens, UniProt O43251-10, residues 100-194)
Technique: RNA Bind-n-Seq
Form: RNA
Matrix: in vitro
Tested at: 365 nM
Notes: natural RNA segment, single round, ends assumed
Reference: no-protein control
Direction: higher = stronger binding
Shared flanks, not repeated: GGGAGUUCUACAGUCCGACGAUC … UGGAAUUCUCGGGUGCCAA
Construct (chain): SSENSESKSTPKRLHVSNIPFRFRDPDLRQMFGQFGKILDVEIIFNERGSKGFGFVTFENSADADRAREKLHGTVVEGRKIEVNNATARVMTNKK
Sequence | RBNS enrichment (R)
GAACUCUGCUCUCAGAGCUAACGUGGAAUCUUCGCACCCAAGGGGAGGGUUGUGGUUCCUGUCACCUGGGCUGAGGAGCCAGGAAGGCCUAAGCACUUCACUCACACACG | 0.545
UCUUUUGUAACUUUACAGAGGAUCAAAGCCGUUCUUUUCCAUUUCUUGGCCAGGCCUGUACUCUCCCGCAUAGAGGCUUUCCUUUCCCUCCUAUUUGCGUCACGCCUUCC | 0.59
CCAUCUUCUUUCAUUCUGUGCUGUGGUCUGCAGUGGAAACAGCAGGCCUUUCAGCUCCUUGUGUGCCUGUUGUGUCUGGUAAUGAUGUAGUUCAGAGUGGGAUUUUUUUC | 0.391
GGCAAGCUGCCAGACAACUCUGGCUCCUGUCAACCUUUUCACCUGGUGCCACAAAAGUAUUUCUGCUUUUUAGCCCUUUCUCUGCACCUCAACAAGAGAUAAAAAAAAAC | 0.694
CAAUAGCUCAGAACCCGCCUAAACUGAAGGCCUUUUGGCUGCAUGGCUACAGCUUUCAGCCACUUACGGCCCCAGCUGGACAGAGCAGUGCUGUGUGGGUACUCCAAGUG | 0.208
CGGUGACAUAUUGGACCAGAAGAGGCACUAGCCAUUUUAAGGAGAGGAAAGAGAAAACUCUGGGGUCAGGGAGAGACCCUACCCCCACCUAAUUAUCCAGCAUAUAUGUA | 0.42
UUCCAGGGAGCUCAGUUUGAUCAUUCUGGGAAUUCUUGUCCUGCCAGCCUGGUGCGGCUGGGAUCACACUUCAAGGAUGGACAGUGGUGUCUCUUUGGGAGAUGGUGUUC | 0.328
UGUGGCUCUGAGCUGCUCUACAGAGCUUCAGUGUGAGAGGAUCGAGCCAUUGAAAGCUCAUUACCAGUAGGACAUAAUUUUUGGCUCUCCCUAUUCACAACCAGUGCACA | 0.35
UGCCCUGAAGGAAGAAGACAUCAGUAGAAAAGGGAACUGACAGCACUGACUGCAAACUGUCUCUUGCUCCUGAACUUCAAUAGCUGCCUUCCUCACCGCAGAUGUCUGUC | 0.517
GCAGGGUCAGCCGGCUGUCAGAGUCUAAGGUCUCCAGCAGCCAUCAGGGUAAUACCCUGACACUGGAGUCCAGACGCAACCAGCUUUAACCAAUGGAAAACGGGGUUGGC | 0.225
AACUCAACUCCCUGACACCCUAUCCCCCCAUCUAUUCUUAAACUCUUUCAUAUAUAUUUUCACUUCCUAAUUCUAGUGUACAUAUCCCUGUAUAUCAUGGUAUCUGUGGG | 0.531
CCUCAAUUCCAACACUGAUUUCCCCUUUUGCAUUCUCCCUCCUUCCCUUCCUUGUAGCCUUUUGACUUUCAUUGGAAAUUAGGAUGUAAAUCUGCUCAGGAGACCUGGAG | 0.33

Sample 2
Target: Sal-like protein 4, full length isoform A (SALL4, Homo sapiens, UniProt Q9UJQ4, residues 1-1053)
Sequence of UniProt Q9UJQ4 (whole entry, looked up): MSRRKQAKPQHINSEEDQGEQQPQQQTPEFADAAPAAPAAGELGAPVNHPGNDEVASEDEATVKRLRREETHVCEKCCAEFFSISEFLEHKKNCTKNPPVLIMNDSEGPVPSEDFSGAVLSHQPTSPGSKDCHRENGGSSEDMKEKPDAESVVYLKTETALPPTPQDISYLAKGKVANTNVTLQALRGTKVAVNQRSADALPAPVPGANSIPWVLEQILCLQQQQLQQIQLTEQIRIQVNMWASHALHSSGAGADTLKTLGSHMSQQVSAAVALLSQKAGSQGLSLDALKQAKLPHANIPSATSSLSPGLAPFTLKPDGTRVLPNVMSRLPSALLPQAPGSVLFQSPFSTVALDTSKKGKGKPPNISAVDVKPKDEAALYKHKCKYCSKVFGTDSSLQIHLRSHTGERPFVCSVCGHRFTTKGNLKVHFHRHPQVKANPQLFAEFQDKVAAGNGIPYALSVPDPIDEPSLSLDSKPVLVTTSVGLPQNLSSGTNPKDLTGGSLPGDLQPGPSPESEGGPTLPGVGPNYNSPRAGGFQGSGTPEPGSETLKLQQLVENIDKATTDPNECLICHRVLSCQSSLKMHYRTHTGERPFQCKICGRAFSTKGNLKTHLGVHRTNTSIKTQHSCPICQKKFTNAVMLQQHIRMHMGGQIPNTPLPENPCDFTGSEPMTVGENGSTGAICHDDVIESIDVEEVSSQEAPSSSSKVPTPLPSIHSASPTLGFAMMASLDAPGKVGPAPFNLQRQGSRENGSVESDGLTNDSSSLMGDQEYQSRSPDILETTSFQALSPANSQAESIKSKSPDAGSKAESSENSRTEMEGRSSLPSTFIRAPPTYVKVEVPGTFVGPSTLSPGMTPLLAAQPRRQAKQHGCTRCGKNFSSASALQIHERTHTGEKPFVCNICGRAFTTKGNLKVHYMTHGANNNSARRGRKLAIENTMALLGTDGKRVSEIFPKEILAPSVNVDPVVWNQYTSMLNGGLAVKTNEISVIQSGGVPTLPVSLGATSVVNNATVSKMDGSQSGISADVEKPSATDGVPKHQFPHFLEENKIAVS
Technique: universal PBM
Form: double-stranded DNA, one strand shown
Matrix: in vitro
Tested at: 600 nM
Notes: 8-mer, flanks averaged, mean of replicates
Direction: higher = stronger binding
Sequence | E-score
AAGCATCC | -0.0402
AGTTACGA | 0.114
CGAGACCA | -0.0721
GCCGTACC | -0.274
ACTACATG | 0.134
AGCATGTA | 0.149
AGGGGTAC | -0.225
CAAAGGTC | -0.264
CAGATGGG | -0.121
CCCCACGA | -0.203
AATTTCCT | 0.23
ACACTGGG | -0.146
TCTCGGCA | -0.235
AGGAATGA | 0.129
GTGATCCA | -0.0907
CAAAGACC | 0.0769
CACCCTTC | -0.138
AAAGTCGC | 0.0946
GAGACTTA | 0.107
GAGTCGGA | -0.0776
AATTTGCG | 0.045

Sample 3
Target: Interferon regulatory factor 7, full length, phosphomimetic (IRF7, Homo sapiens, UniProt Q92985, residues 1-503, S471D/S472D/S475D/S476D/S477D/S483D/S484D/S487D)
Technique: protein-binding microarray
Form: double-stranded DNA, one strand shown
Matrix: in vitro
Tested at: 2200 nM top
Notes: 60-bp whole probe
Together with: salmon DNA 0.4 mg/ml
Reference: random background probes
Direction: higher = stronger binding
Shared flanks, not repeated: GCCTAGCAC … GTCTTGATTCGCTTGACGCTGCTG
Residues (chain): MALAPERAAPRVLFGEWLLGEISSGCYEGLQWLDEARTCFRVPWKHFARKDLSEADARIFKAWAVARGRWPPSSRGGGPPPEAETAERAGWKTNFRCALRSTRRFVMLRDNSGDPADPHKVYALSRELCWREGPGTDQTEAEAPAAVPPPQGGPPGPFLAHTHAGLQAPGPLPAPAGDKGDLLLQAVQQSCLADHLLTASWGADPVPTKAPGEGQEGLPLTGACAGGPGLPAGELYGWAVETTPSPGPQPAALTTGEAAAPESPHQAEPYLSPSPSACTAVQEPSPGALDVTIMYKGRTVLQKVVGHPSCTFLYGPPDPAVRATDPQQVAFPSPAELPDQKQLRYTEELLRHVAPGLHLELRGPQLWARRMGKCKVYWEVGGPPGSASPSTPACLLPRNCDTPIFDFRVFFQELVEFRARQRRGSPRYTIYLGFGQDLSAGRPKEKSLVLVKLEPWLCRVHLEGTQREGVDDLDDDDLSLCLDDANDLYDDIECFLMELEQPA
Sequence | fitted relative affinity [z-score]
GACGGTCTCGGTCTCGGAACGTGCTAG | -0.016
TTAGGTATCCTACTTCTTTAGTGCTAG | 0.731
GACGGACTGGGATTCGGGACGTGCTAG | -0.506
TCAGTTCTGAGTCTTCCACTGTGCTAG | 1.33
TCCATTTTCTAAATTCCCTAGTGCTAG | 3.52
TACGGACTGCTTATCCTGACGTGCTAG | 0.636
TTAGGTTCCCTTGTCCTTTAGTGCTAG | 1.24
GACGGTTCACTTTTCCTGACGTGCTAG | 1.72
GACGGTCTCGGGTATCGGGACGTGCTA | -0.349
TTAGATATCAGTTTTGATTAGTGCTAG | 0.605
TTAGGTTCCGGTTTCGGATAGTGCTAG | 5.69
GACGATTTCAGTTGCGAGACGTGCTAG | 1.11
GAAGGTCTCGGTCTCGGGACGTGCTAG | -0.0737
TTAGGACTGGGGTTTCGGTTGGTGCTA | 4.39
TTAGGACTGGGTCTCTGTTAGTGCTAG | -0.109
GATGGTCTCGGTATCGGGACGTGCTAG | 0.326
TCATTATTAAAACTTCATACTGTGCTA | 0.016
ATAGGTATCGGTTTCGGTTAGTGCTAG | 7.35
TTAGGTTTCCTTCTCCTTGAGTGCTAG | 2.23
TTAGGTATCGACTATCAGTTAGTGCTA | -0.13
TTAGGTATCGGGATCGGTTAGTGCTAG | 0.643
GACGATTTTAGTTCCGAGACGTGCTAG | 0.956
TTACAACTGGGGTATCGATTAGTGCTA | 0.438
TTAGGTTTCGGTCTCGGTGAGTGCTAG | 6.67
TTAGATTTCGGGTATCGGTTAGTGCTA | 3.28

Sample 4
Target: Prothrombin, mature alpha-thrombin (F2, Homo sapiens, UniProt P00734)
Technique: aptamer microarray, sandwich
Form: DNA with 2'F-ANA
Matrix: in vitro
Tested at: 200 nM
Notes: whole 15-mer aptamer, many near background
Together with: Cy3 exosite-II aptamer, 400 nM
Direction: higher = stronger binding
Sequence: GGTTGGTGTGGTTGG
Modification | mean fluorescence intensity
2'F-ANA at 7 12 14 | 316 a.u.
2'F-ANA at 2 3 4 6 7 9 12 14 | 235 a.u.
2'F-ANA at 2 3 4 6 7 10 12 13 15 | 449 a.u.
2'F-ANA at 3 5 6 7 9 10 11 12 13 14 | 59.4 a.u.
2'F-ANA at 1 2 4 6 8 9 11 13 14 15 | 50 a.u.
2'F-ANA at 1 3 4 5 6 9 10 11 14 15 | 50.6 a.u.
2'F-ANA at 1 4 5 6 7 8 9 10 11 13 15 | 79.5 a.u.
2'F-ANA at 3 4 6 10 13 14 15 | 182 a.u.
2'F-ANA at 4 5 6 7 8 10 13 14 15 | 48 a.u.
2'F-ANA at 2 3 4 6 7 9 10 11 | 205 a.u.
2'F-ANA at 3 6 9 10 11 12 13 | 496 a.u.
2'F-ANA at 1 4 6 7 8 11 12 14 | 59.3 a.u.
2'F-ANA at 1 2 3 4 5 9 10 11 12 14 | 63.8 a.u.
2'F-ANA at 1 3 4 5 8 11 13 15 | 77.3 a.u.
2'F-ANA at 1 2 3 4 6 7 8 12 | 350 a.u.
2'F-ANA at 4 5 9 11 | 58 a.u.
2'F-ANA at 1 3 4 6 7 8 11 | 202 a.u.
2'F-ANA at 3 5 9 10 11 12 13 14 15 | 101 a.u.
2'F-ANA at 1 3 4 5 6 9 10 12 14 15 | 53.5 a.u.
2'F-ANA at 1 2 4 5 8 9 14 15 | 253 a.u.
2'F-ANA at 1 2 5 6 7 8 9 10 11 12 | 53.2 a.u.
2'F-ANA at 4 6 7 10 11 13 14 | 73.5 a.u.
2'F-ANA at 1 3 4 5 8 13 15 | 50.2 a.u.
2'F-ANA at 4 5 7 8 9 11 14 | 46.5 a.u.
2'F-ANA at 1 4 6 13 14 15 | 50.2 a.u.

Sample 5
Target: Histone acetyltransferase KAT6A, winged helix 1, GST fusion (KAT6A, Homo sapiens, UniProt Q92794, residues 1-85)
Technique: protein binding microarray
Form: double-stranded DNA, one strand shown
Matrix: in vitro
Tested at: not given
Notes: 8-mer, flanks averaged, mean of 2 arrays, mostly near background
Reference: not given
Direction: higher = stronger binding
Target sequence (chain): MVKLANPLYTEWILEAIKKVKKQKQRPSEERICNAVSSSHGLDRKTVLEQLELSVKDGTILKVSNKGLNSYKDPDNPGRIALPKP
Sequence | E-score
CCCGCTAA | 0.317
ATGTACTG | -0.164
GGAAAATA | -0.0744
ACTTAAGC | 0.0909
ACTAACCA | -0.18
ATTAAAGG | -0.0593
GACAATGC | -0.16
CCCGGAAC | 0.118
CGTCGCGC | 0.401
AGCGCAAG | 0.166
CAGTAGAC | 0.03
AATTCGCA | 0.045
ACATACCG | 0.206
CTCACTGC | -0.0995
CTGCCCGC | 0.352
ACGACGTA | 0.033
AAAGTCAC | -0.0699
GTATGTTA | 0.0286
CCGAGGCA | 0.00822
CTATGTGC | -0.0627
ATCAAACG | 0.0948
CTCAACTA | -0.122
ACCAGAGA | -0.287
CCAGGAAA | -0.148

Excerpt of the above (sample 4):
Modification | mean fluorescence intensity
2'F-ANA at 1 3 4 5 6 9 10 12 14 15 | 53.5 a.u.
2'F-ANA at 1 2 3 4 6 7 8 12 | 350 a.u.
2'F-ANA at 2 3 4 6 7 10 12 13 15 | 449 a.u.
2'F-ANA at 3 6 9 10 11 12 13 | 496 a.u.
2'F-ANA at 1 2 3 4 5 9 10 11 12 14 | 63.8 a.u.
2'F-ANA at 2 3 4 6 7 9 10 11 | 205 a.u.
2'F-ANA at 1 2 5 6 7 8 9 10 11 12 | 53.2 a.u.
2'F-ANA at 3 5 6 7 9 10 11 12 13 14 | 59.4 a.u.
2'F-ANA at 4 5 6 7 8 10 13 14 15 | 48 a.u.
